{"data": "Measured values pooled from the literature", "note": "Compare with care: the assays were run in different laboratories. “And” joins repeats or separate records; there may be more than shown. ± marks the error that the study gave.", "UniProt Q8BVQ5, sequence (whole entry, looked up)": "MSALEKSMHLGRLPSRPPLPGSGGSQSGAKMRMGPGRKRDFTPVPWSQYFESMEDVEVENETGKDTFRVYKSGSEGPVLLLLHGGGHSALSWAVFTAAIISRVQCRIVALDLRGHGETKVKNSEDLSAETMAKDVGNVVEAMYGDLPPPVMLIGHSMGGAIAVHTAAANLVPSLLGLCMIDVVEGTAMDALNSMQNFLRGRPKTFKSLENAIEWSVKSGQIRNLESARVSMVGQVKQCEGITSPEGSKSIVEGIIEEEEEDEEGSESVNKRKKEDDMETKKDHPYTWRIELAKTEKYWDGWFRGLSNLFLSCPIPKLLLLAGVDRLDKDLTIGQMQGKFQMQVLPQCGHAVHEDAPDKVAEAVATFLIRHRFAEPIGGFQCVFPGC", "UniProt Q9UH17, sequence (whole entry, looked up)": "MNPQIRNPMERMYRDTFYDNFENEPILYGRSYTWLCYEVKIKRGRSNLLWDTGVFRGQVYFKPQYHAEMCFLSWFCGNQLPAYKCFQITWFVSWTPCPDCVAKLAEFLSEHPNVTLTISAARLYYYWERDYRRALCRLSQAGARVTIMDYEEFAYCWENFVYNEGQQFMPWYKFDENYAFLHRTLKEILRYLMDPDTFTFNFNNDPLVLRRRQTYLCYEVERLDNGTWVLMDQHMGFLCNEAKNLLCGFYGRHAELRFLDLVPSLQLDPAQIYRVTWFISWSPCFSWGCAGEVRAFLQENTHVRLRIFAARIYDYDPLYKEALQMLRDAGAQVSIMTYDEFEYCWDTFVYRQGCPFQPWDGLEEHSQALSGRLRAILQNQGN", "UniProt Q9Y2J8, sequence (whole entry, looked up)": "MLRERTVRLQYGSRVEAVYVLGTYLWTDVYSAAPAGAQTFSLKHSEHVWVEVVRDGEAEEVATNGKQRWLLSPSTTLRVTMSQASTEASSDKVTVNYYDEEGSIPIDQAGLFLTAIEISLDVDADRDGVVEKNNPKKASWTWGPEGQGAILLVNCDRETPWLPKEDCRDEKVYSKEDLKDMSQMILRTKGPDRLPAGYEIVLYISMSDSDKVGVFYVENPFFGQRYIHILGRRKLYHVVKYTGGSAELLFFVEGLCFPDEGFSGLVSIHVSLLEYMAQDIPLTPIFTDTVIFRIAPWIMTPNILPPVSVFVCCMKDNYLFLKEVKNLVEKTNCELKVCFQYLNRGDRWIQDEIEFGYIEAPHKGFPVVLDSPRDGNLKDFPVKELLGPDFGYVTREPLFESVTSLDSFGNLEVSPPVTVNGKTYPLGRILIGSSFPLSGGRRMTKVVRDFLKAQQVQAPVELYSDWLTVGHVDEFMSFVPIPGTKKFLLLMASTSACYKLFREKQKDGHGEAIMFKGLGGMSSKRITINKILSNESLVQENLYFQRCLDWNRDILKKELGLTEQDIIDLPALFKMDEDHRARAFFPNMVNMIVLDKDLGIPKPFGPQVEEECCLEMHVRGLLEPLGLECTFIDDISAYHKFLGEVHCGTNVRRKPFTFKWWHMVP", "UniProt P49674, sequence (whole entry, looked up)": "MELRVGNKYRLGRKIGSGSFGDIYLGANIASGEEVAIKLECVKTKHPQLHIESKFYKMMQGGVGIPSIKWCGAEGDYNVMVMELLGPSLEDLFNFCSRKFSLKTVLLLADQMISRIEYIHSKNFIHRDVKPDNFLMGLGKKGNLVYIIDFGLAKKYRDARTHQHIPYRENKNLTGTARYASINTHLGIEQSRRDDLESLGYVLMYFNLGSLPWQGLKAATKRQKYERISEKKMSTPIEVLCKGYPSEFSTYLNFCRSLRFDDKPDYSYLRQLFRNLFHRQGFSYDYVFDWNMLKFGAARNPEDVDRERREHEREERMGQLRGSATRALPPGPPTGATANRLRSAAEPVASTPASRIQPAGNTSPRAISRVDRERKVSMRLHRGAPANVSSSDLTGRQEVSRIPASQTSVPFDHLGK", "UniProt P08172, sequence (whole entry, looked up)": "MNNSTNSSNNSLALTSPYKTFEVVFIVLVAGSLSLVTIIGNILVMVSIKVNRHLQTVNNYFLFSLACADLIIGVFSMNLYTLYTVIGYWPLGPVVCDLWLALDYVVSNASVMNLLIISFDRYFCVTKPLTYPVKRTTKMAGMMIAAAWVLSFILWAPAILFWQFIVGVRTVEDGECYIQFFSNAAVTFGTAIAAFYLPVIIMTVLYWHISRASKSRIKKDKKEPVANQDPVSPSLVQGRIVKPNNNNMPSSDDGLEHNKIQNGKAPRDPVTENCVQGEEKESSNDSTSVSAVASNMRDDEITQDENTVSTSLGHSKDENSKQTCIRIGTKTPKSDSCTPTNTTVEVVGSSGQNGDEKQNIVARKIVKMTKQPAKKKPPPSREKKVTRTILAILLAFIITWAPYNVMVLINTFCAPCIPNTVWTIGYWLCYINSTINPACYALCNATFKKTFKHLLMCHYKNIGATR", "UniProt Q08460, sequence (whole entry, looked up)": "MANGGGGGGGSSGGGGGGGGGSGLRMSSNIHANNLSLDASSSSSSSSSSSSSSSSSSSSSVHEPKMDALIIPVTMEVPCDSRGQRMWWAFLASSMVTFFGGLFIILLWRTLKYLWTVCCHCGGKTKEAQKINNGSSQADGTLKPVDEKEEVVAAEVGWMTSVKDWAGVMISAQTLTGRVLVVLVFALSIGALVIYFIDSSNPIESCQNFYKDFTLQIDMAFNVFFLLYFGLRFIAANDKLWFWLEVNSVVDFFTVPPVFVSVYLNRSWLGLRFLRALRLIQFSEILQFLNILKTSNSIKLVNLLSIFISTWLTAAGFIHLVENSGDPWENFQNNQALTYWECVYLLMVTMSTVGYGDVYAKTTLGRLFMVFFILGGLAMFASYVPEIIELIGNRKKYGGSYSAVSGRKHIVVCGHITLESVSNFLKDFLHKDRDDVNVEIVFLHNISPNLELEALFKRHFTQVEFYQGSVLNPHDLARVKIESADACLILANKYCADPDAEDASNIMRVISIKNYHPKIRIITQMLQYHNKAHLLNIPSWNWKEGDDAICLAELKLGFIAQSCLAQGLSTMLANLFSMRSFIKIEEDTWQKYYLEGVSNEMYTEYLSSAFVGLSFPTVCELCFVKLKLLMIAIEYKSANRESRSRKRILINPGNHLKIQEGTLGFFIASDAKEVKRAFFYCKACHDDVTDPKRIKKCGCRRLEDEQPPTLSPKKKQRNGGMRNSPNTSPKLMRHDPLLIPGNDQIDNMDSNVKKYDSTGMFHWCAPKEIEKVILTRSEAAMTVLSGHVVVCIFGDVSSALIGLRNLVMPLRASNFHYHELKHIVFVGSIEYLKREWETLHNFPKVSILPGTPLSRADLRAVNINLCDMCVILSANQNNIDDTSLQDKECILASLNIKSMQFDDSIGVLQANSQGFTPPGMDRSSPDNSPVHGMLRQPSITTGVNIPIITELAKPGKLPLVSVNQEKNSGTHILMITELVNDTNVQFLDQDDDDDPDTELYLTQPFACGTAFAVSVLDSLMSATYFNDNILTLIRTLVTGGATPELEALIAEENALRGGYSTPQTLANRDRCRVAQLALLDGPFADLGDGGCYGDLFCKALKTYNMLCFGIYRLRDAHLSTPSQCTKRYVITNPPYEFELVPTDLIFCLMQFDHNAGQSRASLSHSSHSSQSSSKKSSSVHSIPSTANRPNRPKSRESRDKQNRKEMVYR", "UniProt P33533, sequence (whole entry, looked up)": "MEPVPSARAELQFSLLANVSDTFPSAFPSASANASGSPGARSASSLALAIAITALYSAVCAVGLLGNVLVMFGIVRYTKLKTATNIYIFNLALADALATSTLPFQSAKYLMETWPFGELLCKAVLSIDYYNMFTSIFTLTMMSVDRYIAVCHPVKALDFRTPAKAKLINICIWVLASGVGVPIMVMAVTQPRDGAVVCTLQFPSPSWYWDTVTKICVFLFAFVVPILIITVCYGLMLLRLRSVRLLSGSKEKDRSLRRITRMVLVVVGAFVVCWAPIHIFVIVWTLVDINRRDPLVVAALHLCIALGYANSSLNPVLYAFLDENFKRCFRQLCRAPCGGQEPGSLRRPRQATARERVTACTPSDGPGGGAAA", "UniProt Q13523, sequence (whole entry, looked up)": "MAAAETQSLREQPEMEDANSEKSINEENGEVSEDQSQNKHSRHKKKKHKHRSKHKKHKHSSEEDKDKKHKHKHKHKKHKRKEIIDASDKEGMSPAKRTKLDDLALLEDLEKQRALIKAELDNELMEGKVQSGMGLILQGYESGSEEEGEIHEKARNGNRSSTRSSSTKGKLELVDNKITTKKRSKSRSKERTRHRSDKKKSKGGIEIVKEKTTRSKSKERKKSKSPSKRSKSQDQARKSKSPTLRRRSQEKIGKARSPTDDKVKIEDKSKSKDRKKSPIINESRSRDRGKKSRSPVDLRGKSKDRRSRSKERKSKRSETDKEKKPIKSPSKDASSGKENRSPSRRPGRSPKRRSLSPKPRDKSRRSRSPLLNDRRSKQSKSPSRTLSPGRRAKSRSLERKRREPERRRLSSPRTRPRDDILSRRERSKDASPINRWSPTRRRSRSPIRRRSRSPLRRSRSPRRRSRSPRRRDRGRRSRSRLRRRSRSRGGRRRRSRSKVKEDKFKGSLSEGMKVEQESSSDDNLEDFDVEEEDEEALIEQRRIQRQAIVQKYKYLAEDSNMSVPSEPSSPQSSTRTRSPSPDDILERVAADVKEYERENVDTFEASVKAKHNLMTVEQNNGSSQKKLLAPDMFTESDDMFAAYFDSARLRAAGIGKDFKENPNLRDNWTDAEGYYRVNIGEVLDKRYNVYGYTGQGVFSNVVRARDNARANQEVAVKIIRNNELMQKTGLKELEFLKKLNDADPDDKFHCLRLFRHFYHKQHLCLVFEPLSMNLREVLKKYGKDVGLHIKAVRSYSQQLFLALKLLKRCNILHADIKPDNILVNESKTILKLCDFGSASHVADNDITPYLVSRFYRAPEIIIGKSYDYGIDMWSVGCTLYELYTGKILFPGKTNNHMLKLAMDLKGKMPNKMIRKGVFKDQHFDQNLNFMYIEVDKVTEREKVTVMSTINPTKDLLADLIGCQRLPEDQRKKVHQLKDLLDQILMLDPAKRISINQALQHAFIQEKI"}
{"SMILES": "[CH3][Ti+2][O]C(=O)c1ccc([S][Au][PH](c2ccccc2)(c2ccccc2)c2ccccc2)cc1.c1cc[cH-]c1.c1cc[cH-]c1", "tested on": "RAF1", "assay": "kinase activity, HotSpot kinase", "conditions": "1 µM, added: ATP 10 µM", "quantity": "remaining activity", "value": "109% and 110%"}
{"SMILES": "Cc1cc(-c2ccc3ccccc3c2)nnc1NCCN1CCN(C)CC1", "tested on": "CHRM2 (Homo sapiens, UniProt P08172)", "assay": "antagonist", "conditions": "10000 nM", "scale": "baseline: control", "quantity": "activity", "value": "21%"}
{"SMILES": "CC[C@@H](C)[C@@H](NC(=O)[C@@H](CCC(N)=O)NC(=O)[C@H](NC(=O)[C@H]1CCCN1C(=O)[C@H](NC(=O)[C@@H](CO)NC(=O)[C@@H](Cc1ccccc1)NC(=O)[C@H]1CCCN1C(=O)[C@@H](CCC(N)=O)NC(=O)[C@H](N)CCSC)[C@H](C)CC)C(C)C)C(=O)N[C@@H](C(=O)N[C@H](CC(C)C)C(=O)N[C@H](CCC(N)=O)C(=O)NCC(=O)N[C@H](CO)C(=O)N[C@H](CCCNC(=N)N)C(=O)N[C@H](CCCNC(=N)N)C(=O)N[C@H](CCCNC(=N)N)C(=O)N[C@H](CCC(N)=O)C(=O)NCC(=O)N[C@H](CCCNC(=N)N)C(N)=O)[C@H](C)O", "tested on": "Kcnma1 (Mus musculus, UniProt Q08460)", "assay": "ion current, blocker, inside-out patch clamp", "test system": "Xenopus oocytes", "conditions": "+120 mV, added: 10 µM cytosolic Ca2+", "quantity": "Hill coefficient", "value": 0.88}
{"SMILES": "CS(C)(=O)=Nc1ccc(-c2ccc(-c3nc4cc(O[C@@H]5CO[C@H]6[C@@H]5OC[C@H]6O)[nH]c4cc3F)cc2)cc1", "tested on": "thyroid hormone receptor", "assay": "binding", "conditions": "10 µM", "quantity": "inhibition", "value": "6%"}
{"SMILES": "O=C1NC2(CC2)COc2ncc(F)cc2[C@H]2COCCN2c2ccn3ncc1c3n2", "test system": "Sprague-Dawley rat, male, serum", "conditions": "oral, 5 mg/kg/day, 4 weeks daily, end of treatment", "quantity": "albumin", "value": "34.7 ± 1.8 g/L"}
{"SMILES": "C=CC(=O)Nc1cc(-c2ccc(C(=O)N3CCCC(O)(CC)C3)cc2)ccc1F (stereo not drawn)", "tested on": "DNA dC->dU-editing enzyme APOBEC-3B, C-terminal domain (Homo sapiens, UniProt Q9UH17)", "assay": "covalent adduct, intact protein MS, item: mass +397 Da adduct of 25735 Da", "conditions": "125 µM, 3 h, 5-fold molar excess", "quantity": "adducted protein", "value": "37% and 35%"}
{"SMILES": "CN(C)[C@H]1C[C@@]23CC[C@@]4(O2)C(=CC[C@]2(C)[C@@H](c5ccc6ccncc6c5)CC[C@H]24)C=C3[C@@H](O)[C@@H]1O", "tested on": "PRPF4B (Homo sapiens, UniProt Q13523)", "assay": "ATP probe labelling, inhibitor, KiNativ profiling", "conditions": "0.1 µM", "quantity": "inhibition", "value": "-3.7%"}
{"SMILES": "CC(C)[C@H]1NC(=O)C[C@H]2/C=C/CCSSC[C@@H](NC1=O)C(=O)N[C@H](Cc1cccc3ccccc13)C(=O)NCC(=O)O2", "tested on": "CSNK1E (Homo sapiens, UniProt P49674)", "assay": "enzyme activity, inhibitor", "conditions": "10 µM", "quantity": "inhibition", "value": "7.1%"}
{"SMILES": "O=C1NC(=O)c2c1c1cc(F)c[n+]3c1c1c2c2cc(O)ccc2[n]1[Ru-4]312([N]=C=S)[S+]3CC[S+]1CC[S+]2CC3 (stereo not drawn)", "tested on": "KIT (Homo sapiens, UniProt P10721, D816V)", "assay": "enzyme activity", "conditions": "100 nM, human enzyme, added: 10 µM ATP", "scale": "baseline: untreated", "quantity": "remaining activity", "value": "91%"}
{"SMILES": "N[C@H](C(=O)N1CCCC1)C1CCN(c2nccc3c(-c4ncc(Cl)cc4Cl)cccc23)CC1", "tested on": "PADI2 (Homo sapiens, UniProt Q9Y2J8)", "assay": "enzyme activity", "conditions": "0.01573 µM, high-affinity site, added: Ca2+ 1.5 mM", "quantity": "kcat", "value": "1.63 s⁻¹"}
{"SMILES": "C[C@@H](O)[C@@H]1CN([C@@H](CC2CCCCC2)CN2CCC[C@H]2CN2CCNC[C@@H]2Cc2ccc3ccccc3c2)CCN1CCC12CC3CC(CC(C3)C1)C2", "tested on": "Oprd1 (Rattus norvegicus, UniProt P33533)", "assay": "radioligand binding", "test system": "rat brain membranes", "conditions": "500 nM, pH 7.5, 25 °C, added: 2 nM [3H]DPDPE", "quantity": "remaining binding", "value": "90.4%"}
{"SMILES": "CC(C)CC(O)(CC(C)C)c1cn(C(=O)N2CCCC2)nn1", "tested on": "Protein phosphatase methylesterase 1 (Mus musculus, UniProt Q8BVQ5)", "assay": "probe labelling, inhibitor, competitive ABPP-SILAC, item: Ppme1", "test system": "mouse T cells", "conditions": "concentration not given, 4 h, single peptide", "scale": "baseline: treated over DMSO cells, lower = stronger inhibition", "quantity": "SILAC activity ratio", "value": "1.17 and 1.23 and 0.97 and 1.05 and 1.14 and 1.04"}
{"note": "For quick reference, copied from above:"}
{"SMILES": "CC[C@@H](C)[C@@H](NC(=O)[C@@H](CCC(N)=O)NC(=O)[C@H](NC(=O)[C@H]1CCCN1C(=O)[C@H](NC(=O)[C@@H](CO)NC(=O)[C@@H](Cc1ccccc1)NC(=O)[C@H]1CCCN1C(=O)[C@@H](CCC(N)=O)NC(=O)[C@H](N)CCSC)[C@H](C)CC)C(C)C)C(=O)N[C@@H](C(=O)N[C@H](CC(C)C)C(=O)N[C@H](CCC(N)=O)C(=O)NCC(=O)N[C@H](CO)C(=O)N[C@H](CCCNC(=N)N)C(=O)N[C@H](CCCNC(=N)N)C(=O)N[C@H](CCCNC(=N)N)C(=O)N[C@H](CCC(N)=O)C(=O)NCC(=O)N[C@H](CCCNC(=N)N)C(N)=O)[C@H](C)O", "tested on": "Kcnma1 (Mus musculus, UniProt Q08460)", "assay": "ion current, blocker, inside-out patch clamp", "test system": "Xenopus oocytes", "conditions": "+120 mV, added: 10 µM cytosolic Ca2+", "quantity": "Hill coefficient", "value": 0.88}
